# Measurements from different studies.
# Several values in a cell are separate wells, animals, samples, runs or records.
SMILES,cell line,assay,setting,scale,measurement,value
CC(C)(C)C(=O)OCOP(=O)(COCCn1cnc2c(N)ncnc21)OCOC(=O)C(C)(C)C,BT-16,"cell viability, MTT","10 µM, 72 h",,inhibition,85.3%
O=C1[C@H]2CCCN2[C@H](c2cccc3c2OCO3)N1c1ccc(Cl)c(Cl)c1 (racemic),PC-12 cells expressing mutant huntingtin,carbachol-stimulated IP3R Ca2+ release,"50 µM, 2 days, with: 1 mM carbachol",relative to: mutant huntingtin alone,Ca2+ release,no effect
Cc1cc(Nc2ncc(Cl)c(Nc3ccccc3S(=O)(=O)C(C)C)n2)c(OC(C)C)cc1C1CCNCC1,SK-N-AS,"LC-MS/MS phosphoproteomics, refers to: AAAS phosphorylation","200 nM, 60 min",relative to: untreated,log2 fold change,-0.639
COc1cnc2cccc(N3CCc4c(cc(Cn5ccnc5C)cc4-c4cn(C)nc4C(F)(F)F)C3=O)c2c1,PA-1,"cell growth, inhibitor",120 h,,EC50,0.104 µM
Nc1ncnc2c1ncn2[C@@H]1O[C@H](CO)[C@@H](O)[C@H]1O,unstimulated human T cells,,"10 µM, 72 h",higher = more viable cells,viability,76.7 a.u. and 84.4 a.u. and 83.3 a.u.
COc1cccc2c1C(=O)c1c(O)c3c(c(O)c1C2=O)C[C@@](O)(C(C)=O)C[C@@H]3O[C@H]1C[C@H](N)[C@H](O)[C@H](C)O1,BT-16,"cell viability, MTT","10 µM, 72 h",,inhibition,89.2%
CCc1cnc(N2CCC(c3nc(COc4ccc(-n5cnnn5)cc4)cs3)CC2)nc1,HEK-293T,"RNA-seq GSEA, refers to: HALLMARK_KRAS_SIGNALING_UP",concentration not given,direction not given,normalized enrichment score,0.903
CCOc1cc2ncc(C#N)c(Nc3ccc(F)c(Cl)c3)c2cc1NC(=O)/C=C/CN(C)C,BT-16,"cell viability, MTT","10 µM, 72 h",,inhibition,91.9%
CCCCN1C[C@H](O)[C@@H](O)[C@@H](O)[C@H]1CO,sample B patient fibroblasts,"Gb3 level lowering, LC-MS/MS, refers to: Gb3 d18:1/18:0",216 h,,IC50,9.9 µM
COc1cc(Nc2ncc(F)c(Nc3ccc4c(n3)N(COP(=O)(O)O)C(=O)C(C)(C)O4)n2)cc(OC)c1OC,BT-16,"cell viability, MTT","10 µM, 72 h",,inhibition,94.7%
O=C(/C=C/C=C/C=C/C1CCCCC1)NC1=C[C@@](O)(/C=C/C=C/C=C/C(=O)NC2=C(O)CCC2=O)[C@@H]2O[C@@H]2C1=O,NCI-H1437,"cell growth, CellTiter-Glo",78 h,,GI50,24 µM
CC(C)NCC(O)c1ccc(O)c(O)c1 (stereo not drawn),mouse ventricular cardiomyocytes,,"dose not given, 0.295 s",,sarcomere length,1.8 µm
CCCCCCCCc1ccc(CCC(N)(CO)CO)cc1,BT-16,"cell viability, MTT","10 µM, 72 h",,inhibition,93.7%
CCn1cc(-c2cc(Cn3ccoc3=N)cc3c2CCN([C@@H](C)c2cc(OC)ccn2)C3=O)c(C(F)(F)F)n1,DU-4475,"cell growth, inhibitor",120 h,,EC50,7.04 µM
Cn1cc(-c2ccc(-c3cncc(Cl)c3N3CCC4(CCNC4=O)CC3)cc2)cn1,COLO 205,"gene expression, microarray, refers to: NFATC2 mRNA","concentration not given, 6 h",relative to: untreated cells,log2 fold change,1.27
CC[C@@]1(O)C(=O)OCc2c1cc1n(c2=O)Cc2cc3c(CN(C)C)c(O)ccc3nc2-1,BT-16,"cell viability, MTT","10 µM, 72 h",,inhibition,92.5%
Cc1cccc(-c2[nH]c(CNc3ccccc3F)nc2-c2ccc3ncnn3c2)n1,MM1.S pomalidomide-resistant,XTT,1.25 µM,,viability,61% and 63% and 55%
CCn1cc(-c2cc(Cn3ccnc3)cc3c2CCN([C@H](c2cc(OC)ccn2)C2CC2)C3=O)c(C(F)(F)F)n1,OV-90,"cell growth, inhibitor",120 h,,EC50,> 30 µM
